Assay results of several laboratories.
Each numbered part is a random draw from the data of one study; scales do not carry over between parts. Substitutions count along the parent as printed.

Set 1 — target: CEBPB, bZIP domain (human); technique: DHFR protein complementation; medium: yeast; baseline: wild-type JUN-FOS pair; reading: higher = stronger binding
Notes: single substitutions, most at no-binding floor
Parent: JUN, bZIP domain (human); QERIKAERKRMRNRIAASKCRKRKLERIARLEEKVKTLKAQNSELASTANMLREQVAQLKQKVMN; partner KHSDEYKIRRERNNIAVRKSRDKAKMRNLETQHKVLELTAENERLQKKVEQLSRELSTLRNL
Variant | binding fitness [natural log]
A40W | -1.4
A46I | -1.37
A40R | -1.27
A40H | -1.4
T48L | -1.25
R53A | -0.725
V35H | -1.45
N42R | -1.48
E54W | -1.4
L31V | -1.4
L38F | -1.49
E33V | -1.38

Set 2 — target: CCNB2, cyclin fold, Cln2 fusion (human); technique: yeast growth competition, sequencing; medium: yeast; notes: weak parent motif; baseline: not given; reading: higher = stronger binding
Parent: INSM1 docking peptide (human); PKAIRKLHFEDEV; partner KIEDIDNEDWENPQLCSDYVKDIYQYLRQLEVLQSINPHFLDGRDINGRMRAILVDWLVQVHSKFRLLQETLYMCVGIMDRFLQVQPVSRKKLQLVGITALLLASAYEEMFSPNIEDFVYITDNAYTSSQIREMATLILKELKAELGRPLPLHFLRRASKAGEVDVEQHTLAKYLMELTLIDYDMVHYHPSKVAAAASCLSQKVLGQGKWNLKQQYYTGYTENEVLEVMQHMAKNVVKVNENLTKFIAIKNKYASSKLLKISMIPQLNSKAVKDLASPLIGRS
Variant | normalised enrichment score
E12A | 0.493
H8K | 0.338
E10Q | 0.199
A3S | 0.414
F9M | -0.0238
E10R | 0.33
F9S | 0.299
K6S | -0.168
L7D | -0.176
K6H | 0.542

Set 3 — technique: competition protein-binding microarray; molecule type: double-stranded DNA, one strand shown; medium: in vitro; concentration: 2 µM; with: Cbf1 competitor, 0.05 µM; reading: higher = stronger binding; constant ends, left off below: … GTCTTGATTCGCTTGACGCTGCTG
Target: Phosphate system positive regulatory protein PHO4, full length, GST-tagged (PHO4, Saccharomyces cerevisiae, UniProt P07270, residues 1-312)
Notes: whole 60-bp probe, lowest competitor level
Residues (chain): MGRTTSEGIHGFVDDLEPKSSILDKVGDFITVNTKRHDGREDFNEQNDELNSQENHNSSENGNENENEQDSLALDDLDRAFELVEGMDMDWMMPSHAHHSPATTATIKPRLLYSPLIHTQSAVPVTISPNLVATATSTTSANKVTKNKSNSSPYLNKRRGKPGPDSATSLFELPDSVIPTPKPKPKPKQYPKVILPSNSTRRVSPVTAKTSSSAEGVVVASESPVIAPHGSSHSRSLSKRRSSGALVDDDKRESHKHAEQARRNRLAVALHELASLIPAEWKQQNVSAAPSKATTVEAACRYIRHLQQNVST
Oligonucleotide | fluorescence intensity
AAATGCCGCTTAGAGAACGTGGAAGAAGAGTTTGAT | 13900 a.u.
TAGTCAAGTAGCCATCACGTGAGGATAATATATTAC | 12100 a.u.
GGGATCAAGACCCATCTCGTGCTTTATACCCGGGTC | 8670 a.u.
AAATTACTAAGTTGTCACTGTACTTACCCCGTATGA | 3860 a.u.
ACTGCAAGCGACTATCATGTGATACGATAGCCGGGT | 6930 a.u.
AACCCGCTAACGAGTCACGTGGTGGTCAAGTAAGCA | 14100 a.u.
TGCGAAATTTGAGTACACGTGAGTCAGTCAGTCGGC | 13000 a.u.
TACATCTATTATATTCACGTGCAAAGCATTTTCAGC | 15500 a.u.
AAGAAGGCATTCCTCCACGTGACGGAAGACTTTGGA | 14200 a.u.
CCAACCTGGCTTGCCCACGAGGATGGCTTTCTGGCT | 13200 a.u.
CTAACGAAGGTTTGTCACATCACTTACAAGCCAAGT | 3300 a.u.

Set 4 — technique: DHFR PCA, deep sequencing; medium: yeast; with: (+)-ABA 0 µM; baseline: wild-type fitted maximum; reading: higher = stronger binding
Target: ABI1, truncated, D143A, DHFR fusion (Arabidopsis thaliana)
Notes: methotrexate growth selection, single substitutions
Parent: PYL1, truncated, DHFR fusion (Arabidopsis thaliana); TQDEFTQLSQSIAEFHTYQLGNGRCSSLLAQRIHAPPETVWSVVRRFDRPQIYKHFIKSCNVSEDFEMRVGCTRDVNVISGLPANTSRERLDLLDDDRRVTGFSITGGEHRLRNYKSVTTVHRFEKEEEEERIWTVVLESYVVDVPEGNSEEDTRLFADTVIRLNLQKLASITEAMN; partner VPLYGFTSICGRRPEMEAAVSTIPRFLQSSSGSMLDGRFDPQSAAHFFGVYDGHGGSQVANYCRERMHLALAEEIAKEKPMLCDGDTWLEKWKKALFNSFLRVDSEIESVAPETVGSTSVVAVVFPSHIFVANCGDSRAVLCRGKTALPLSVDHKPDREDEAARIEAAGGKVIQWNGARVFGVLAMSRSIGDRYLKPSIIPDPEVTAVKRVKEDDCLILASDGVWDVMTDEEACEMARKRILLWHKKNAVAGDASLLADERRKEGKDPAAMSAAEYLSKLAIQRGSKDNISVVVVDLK
Variant | relative binding score [%]
R49S | 12.2
T135D | -12
N22W | 3.33
H122S | -4.49
K116L | -3.86
S9N | 14.6
R90E | 1.42
D159A | -6.11
P83W | 7.12
V137R | 2.01
E67R | 9.21
A158D | 3.34
K116S | 13.7
V143W | -8.22
F66P | 1.29

Set 5 — technique: universal PBM; molecule type: double-stranded DNA, one strand shown; medium: in vitro; concentration: not given; reading: higher = stronger binding
Target: Sal-like protein 4, full length isoform B (SALL4, Homo sapiens, UniProt Q9UJQ4-2, residues 1-616)
Notes: 8-mer, flanks averaged, mean of replicates
Target sequence (chain): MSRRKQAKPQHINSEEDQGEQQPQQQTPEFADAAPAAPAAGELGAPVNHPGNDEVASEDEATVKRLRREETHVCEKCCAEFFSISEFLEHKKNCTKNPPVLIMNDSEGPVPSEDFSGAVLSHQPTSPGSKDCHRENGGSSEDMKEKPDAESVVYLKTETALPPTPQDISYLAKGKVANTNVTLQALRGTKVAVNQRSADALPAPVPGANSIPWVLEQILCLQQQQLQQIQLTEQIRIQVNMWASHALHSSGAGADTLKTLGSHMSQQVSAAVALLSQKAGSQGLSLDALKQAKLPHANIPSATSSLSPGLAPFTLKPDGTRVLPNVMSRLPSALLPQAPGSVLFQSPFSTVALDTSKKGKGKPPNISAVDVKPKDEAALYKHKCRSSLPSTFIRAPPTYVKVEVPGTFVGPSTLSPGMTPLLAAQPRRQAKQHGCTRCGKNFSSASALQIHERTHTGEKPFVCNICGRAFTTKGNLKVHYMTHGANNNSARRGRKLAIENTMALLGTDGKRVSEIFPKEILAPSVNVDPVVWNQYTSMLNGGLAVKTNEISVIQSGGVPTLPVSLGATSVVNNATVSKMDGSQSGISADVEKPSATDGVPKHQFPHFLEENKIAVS
Oligonucleotide | E-score
TCCGAAGA | -0.0216
AACTAACG | 0.0542
AGCTTATA | 0.298
CAACGGTC | -0.0891
AAACCTTG | -0.0648
ATCAGTAC | 0.158
AATCGCCC | -0.158
ACAACTAG | -0.054
TCATCCGA | 0.00229
AACTCGAG | -0.0971
ATGAGGCC | -0.199
ACGAGACT | 0.0286
CGATCAAG | -0.0472
ACACAAAA | 0.232
GACATCCC | -0.231
AAGAGGAG | -0.223
CCTAAAAC | 0.0519
CTGCATTA | -0.00963
ACCTTACT | 0.201
CGTCCAGA | -0.151
CGCCCACG | -0.273

Set 6 — technique: protein binding microarray; molecule type: double-stranded DNA, one strand shown; medium: in vitro; concentration: not given; baseline: not given; reading: higher = stronger binding
Target: Histone acetyltransferase KAT6A, winged helix 2, GST fusion (KAT6A, Homo sapiens, UniProt Q92794, residues 85-181)
Notes: 8-mer, flanks averaged, mean of 2 arrays, mostly near background
Target sequence (chain): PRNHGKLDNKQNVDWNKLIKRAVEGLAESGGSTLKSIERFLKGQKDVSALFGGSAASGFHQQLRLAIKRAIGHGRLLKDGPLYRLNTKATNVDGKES
Oligonucleotide | E-score
AATCCGAA | -0.0422
GTGGCCAA | 0.0776
CTTGTAGA | -0.19
ATCTAACC | -0.121
TTAAAGAA | 0.0354
AGACAGTA | -0.00747
CGGTGTAA | -0.0481
GCACGGCC | 0.116
GTTGCTTA | 0.113
ATTAAGCA | 0.0204
CCGGGGCA | 0.13
GACCTCAA | 0.00743
ACCTCACC | -0.171
ACCGCTAC | -0.0217
CTTAAAGA | 0.014
AAAAATAC | -0.0842
ATCTGCTA | -0.024
TGCATTAA | 0.044
ACATTGCG | -0.102
ATGACTTG | -0.119

For quick reference, copied from above (set 5):
Oligonucleotide | E-score
TCATCCGA | 0.00229
GACATCCC | -0.231
AACTCGAG | -0.0971
CGTCCAGA | -0.151
AATCGCCC | -0.158
CTGCATTA | -0.00963
ACACAAAA | 0.232
ACCTTACT | 0.201
ACGAGACT | 0.0286
CCTAAAAC | 0.0519
AAACCTTG | -0.0648
AACTAACG | 0.0542
AAGAGGAG | -0.223
AGCTTATA | 0.298
CGATCAAG | -0.0472
